Assay results collected from several papers.
Lines come from different studies, so protocols differ. Numbers after ± are the reported error.
Target: Mu-type opioid receptor (Oprm1, Rattus norvegicus, UniProt P33535)
UniProt P33535, sequence (whole entry, looked up): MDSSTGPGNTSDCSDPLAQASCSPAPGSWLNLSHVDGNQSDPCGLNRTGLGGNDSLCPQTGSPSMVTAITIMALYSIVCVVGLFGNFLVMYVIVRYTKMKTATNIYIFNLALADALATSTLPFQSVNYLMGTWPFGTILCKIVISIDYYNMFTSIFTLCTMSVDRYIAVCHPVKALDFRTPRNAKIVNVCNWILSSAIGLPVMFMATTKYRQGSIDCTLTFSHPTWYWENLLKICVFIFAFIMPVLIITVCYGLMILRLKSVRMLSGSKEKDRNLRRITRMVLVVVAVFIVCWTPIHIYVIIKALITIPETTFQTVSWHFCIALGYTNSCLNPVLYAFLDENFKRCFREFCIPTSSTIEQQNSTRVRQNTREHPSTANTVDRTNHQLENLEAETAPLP

Cc1cc(O)cc(C)c1C[C@H](N)C(=O)N1Cc2ccccc2C[C@H]1C(=O)NCC(=O)NCc1ccccc1 — maximal inhibition (cAMP production, inhibitor; C6 cells expressing mu opioid receptor; added: forskolin): 30 ± 10%
Cc1cc(O)cc(C)c1CC(N)C(=O)NC1CCNc2c(C(=O)O)cc(Cc3ccccc3)cc21 (stereo not shown) — efficacy (agonist; C6 cells expressing MOR; reference: DAMGO at 10 µM): 67%
CC(C)C[C@H](NC(=O)[C@H](Cc1cccc2ccccc12)NC(=O)CNC(=O)[C@H](NC(=O)[C@@H](N)Cc1ccc(O)cc1)[C@H](C)O)C(=O)N[C@@H](CO)C(N)=O — Emax (GTPγS binding, agonist, radiometric; cell membranes): 93%
CC(=O)N[C@@H](Cc1ccc(O)cc1)C(=O)N[C@@H](C(=O)N[C@H](C(=O)N[C@H](Cc1ccccc1)C(N)=O)C(C)C)C(C)C — activity (GIRK current, agonist, whole-cell patch clamp; rat brain slice, locus coeruleus neurons; 10 to 30 µM): inactive
Cc1cc(O)cc(C)c1CC(N)C(=O)NC1CCNc2ccc(Cc3cccnc3)cc21 (stereo not shown) — maximal stimulation (agonist; 10 µM; reference: DAMGO): 37 ± 7%
Cc1cc(O)cc(C)c1CC(N)C(=O)NC1CCNc2c(Br)cc(Cc3ccccc3)cc21 (stereo not shown) — efficacy (agonist; C6 cells expressing MOR; reference: DAMGO at 10 µM): 73%
NC(=O)[C@H](CO)NC(=O)[C@@H]1CCCN1C(=O)[C@H](Cc1ccc(O)cc1)NC(=O)CNC(=O)[C@H](Cc1ccccc1)NC(=O)[C@@H](CCCCN=C=S)NC(=O)[C@@H](N)Cc1ccc(O)cc1 — inhibition ([3H]DAMGO binding, wash-resistant binding; about IC50): 31 ± 2%
CCCC[C@@H]1NC(=O)[C@H](Cc2ccccc2)NC(=O)CNC(=O)[C@H](NC(=O)[C@@H](N)Cc2ccc(O)cc2)C(C)(C)SSC(C)(C)[C@H](C(=O)N[C@@H](Cc2c[nH]c3ccccc23)C(=O)NCc2cc(C(F)(F)F)cc(C(F)(F)F)c2)NC(=O)[C@@H]2CCCN2C1=O — Emax (GTPγS binding, agonist, radiometric; cell membranes): 26%
Cc1cc(O)cc(C)c1CC(N)C(=O)NC1CCNc2ccc(Cc3ccc4c(c3)OCO4)cc21 (stereo not shown) — maximal stimulation (agonist; 10 µM; reference: DAMGO): 36 ± 3%
Cc1cc(O)cc(C)c1C[C@H](N)C(=O)N[C@@H]1CSCCSC(C)(C)[C@H](C(N)=O)NC(=O)C2(Cc3ccccc3C2)NC1=O — potency ratio (G protein activation, agonist; reference: compound over morphine, higher = more potent): 480 fold
Cc1cc(O)cc(C)c1CC(N)C(=O)NC1CCNc2c(C)cc(Cc3ccccc3)cc21 (stereo not shown) — efficacy (agonist; C6 cells expressing MOR; reference: DAMGO at 10 µM): 91%
Cc1cc(O)cc(C)c1C[C@H](N)C(=O)N1Cc2ccccc2C[C@H]1CN[C@@H](Cc1ccccc1)C(=O)N[C@@H](Cc1ccccc1)C(N)=O — maximal stimulation (agonist; 10 µM; reference: DAMGO 10 µM): 18 ± 1%
CC(=O)N1CCC(NC(=O)C(N)Cc2c(C)cc(O)cc2C)c2cc(CN3CCc4ccccc4C3)ccc21 (stereo not shown) — maximal stimulation (agonist; 10 µM; reference: DAMGO): 91 ± 8%
CCCCC(=N)NCc1ccc2[nH]c3c(c2c1)CC1(O)C2Cc4ccc(O)c5c4C1(CCN2CC1CC1)C3O5 (stereo not shown) — Ke (antagonist; C6 cells expressing µ receptor; added: DAMGO): 0.56 ± 0.26 nM
Cc1cc(O)cc(C)c1CC(N)C(=O)NC1CCNc2ccc(Cc3ccoc3)cc21 (stereo not shown) — maximal stimulation (agonist; 10 µM; reference: DAMGO): 18 ± 2%
CCCC[C@@H](C(=O)N[C@@H](CC(=O)O)C(=O)N[C@@H](Cc1ccccc1)C(N)=O)N(C)C(=O)[C@@H](Cc1c[nH]c2ccccc12)NC(=O)CNC(=O)[C@@H](Cc1ccccc1)NC(=O)[C@@H](N)Cc1ccc(O)cc1 — EC50 (GTPγS binding, agonist): 52.7 nM
CCc1cc(Cc2ccccc2)cc2c1NCCC2NC(=O)C(N)Cc1c(C)cc(O)cc1C (stereo not shown) — efficacy (agonist; C6 cells expressing MOR; reference: DAMGO at 10 µM): 74%
Cc1cc(O)cc(C)c1C[C@H](N)C(=O)N[C@@H](C(=O)NCC(=O)N[C@@H](Cc1ccc2ccccc2c1)C(=O)N[C@@H](CC(C)C)C(=O)N[C@@H](CO)C(N)=O)[C@H](C)O — Emax (GTPγS binding, agonist, radiometric; cell membranes): 81%
Cc1cc(O)cc(C)c1CC(N)C(=O)NC1CCNc2c(CN3CCOCC3)cc(Cc3ccccc3)cc21 (stereo not shown) — efficacy (agonist; C6 cells expressing MOR; reference: DAMGO at 10 µM): 96%
Cc1cc(O)cc(C)c1CC(N)C(=O)NC1CCNc2ccc(CN3CCc4ccccc4C3)cc21 (stereo not shown) — maximal stimulation (agonist; 10 µM; reference: DAMGO): 105 ± 6%
Cc1cc(O)cc(C)c1CC(N)C(=O)NC1CCNc2c(Cc3ccccc3)cccc21 (stereo not shown) — efficacy (agonist; C6 cells expressing MOR; reference: DAMGO at 10 µM): 37%
CC(C)C[C@H](NC(=O)[C@@H](NC(=O)CNC(=O)[C@H](NC(=O)[C@@H](N)Cc1ccc(O)cc1)[C@H](C)O)C1Cc2ccccc2C1)C(=O)N[C@@H](CO)C(N)=O — Emax (GTPγS binding, agonist, radiometric; cell membranes): 70%

Excerpt of the above:
Cc1cc(O)cc(C)c1CC(N)C(=O)NC1CCNc2ccc(Cc3ccoc3)cc21 (stereo not shown) — maximal stimulation (agonist; 10 µM; reference: DAMGO): 18 ± 2%
Cc1cc(O)cc(C)c1CC(N)C(=O)NC1CCNc2c(C)cc(Cc3ccccc3)cc21 (stereo not shown) — efficacy (agonist; C6 cells expressing MOR; reference: DAMGO at 10 µM): 91%
